# Measured values collected from several papers.
# Every numbered part comes from another study and shows a few of its results, in no order.
# Chain of UniProt Q9NPD8 (whole entry, looked up): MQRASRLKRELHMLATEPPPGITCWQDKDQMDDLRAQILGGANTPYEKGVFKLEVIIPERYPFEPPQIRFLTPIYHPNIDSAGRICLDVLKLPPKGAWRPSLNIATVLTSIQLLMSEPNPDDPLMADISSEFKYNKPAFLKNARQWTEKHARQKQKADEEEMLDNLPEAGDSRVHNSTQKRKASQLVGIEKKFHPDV
# Chain of UniProt O00762 (whole entry, looked up): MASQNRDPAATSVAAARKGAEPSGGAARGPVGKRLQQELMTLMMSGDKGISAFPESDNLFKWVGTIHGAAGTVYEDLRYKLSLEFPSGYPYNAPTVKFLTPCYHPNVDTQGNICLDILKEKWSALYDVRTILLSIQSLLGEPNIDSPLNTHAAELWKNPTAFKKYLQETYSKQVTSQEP
# Chain of UniProt P61081 (whole entry, looked up): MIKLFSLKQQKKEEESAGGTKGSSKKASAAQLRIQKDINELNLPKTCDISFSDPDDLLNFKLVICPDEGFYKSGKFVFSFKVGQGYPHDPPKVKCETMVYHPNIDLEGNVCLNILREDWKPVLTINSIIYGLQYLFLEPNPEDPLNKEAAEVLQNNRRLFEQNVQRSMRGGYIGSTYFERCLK
# Chain of UniProt Q9C0C9 (whole entry, looked up): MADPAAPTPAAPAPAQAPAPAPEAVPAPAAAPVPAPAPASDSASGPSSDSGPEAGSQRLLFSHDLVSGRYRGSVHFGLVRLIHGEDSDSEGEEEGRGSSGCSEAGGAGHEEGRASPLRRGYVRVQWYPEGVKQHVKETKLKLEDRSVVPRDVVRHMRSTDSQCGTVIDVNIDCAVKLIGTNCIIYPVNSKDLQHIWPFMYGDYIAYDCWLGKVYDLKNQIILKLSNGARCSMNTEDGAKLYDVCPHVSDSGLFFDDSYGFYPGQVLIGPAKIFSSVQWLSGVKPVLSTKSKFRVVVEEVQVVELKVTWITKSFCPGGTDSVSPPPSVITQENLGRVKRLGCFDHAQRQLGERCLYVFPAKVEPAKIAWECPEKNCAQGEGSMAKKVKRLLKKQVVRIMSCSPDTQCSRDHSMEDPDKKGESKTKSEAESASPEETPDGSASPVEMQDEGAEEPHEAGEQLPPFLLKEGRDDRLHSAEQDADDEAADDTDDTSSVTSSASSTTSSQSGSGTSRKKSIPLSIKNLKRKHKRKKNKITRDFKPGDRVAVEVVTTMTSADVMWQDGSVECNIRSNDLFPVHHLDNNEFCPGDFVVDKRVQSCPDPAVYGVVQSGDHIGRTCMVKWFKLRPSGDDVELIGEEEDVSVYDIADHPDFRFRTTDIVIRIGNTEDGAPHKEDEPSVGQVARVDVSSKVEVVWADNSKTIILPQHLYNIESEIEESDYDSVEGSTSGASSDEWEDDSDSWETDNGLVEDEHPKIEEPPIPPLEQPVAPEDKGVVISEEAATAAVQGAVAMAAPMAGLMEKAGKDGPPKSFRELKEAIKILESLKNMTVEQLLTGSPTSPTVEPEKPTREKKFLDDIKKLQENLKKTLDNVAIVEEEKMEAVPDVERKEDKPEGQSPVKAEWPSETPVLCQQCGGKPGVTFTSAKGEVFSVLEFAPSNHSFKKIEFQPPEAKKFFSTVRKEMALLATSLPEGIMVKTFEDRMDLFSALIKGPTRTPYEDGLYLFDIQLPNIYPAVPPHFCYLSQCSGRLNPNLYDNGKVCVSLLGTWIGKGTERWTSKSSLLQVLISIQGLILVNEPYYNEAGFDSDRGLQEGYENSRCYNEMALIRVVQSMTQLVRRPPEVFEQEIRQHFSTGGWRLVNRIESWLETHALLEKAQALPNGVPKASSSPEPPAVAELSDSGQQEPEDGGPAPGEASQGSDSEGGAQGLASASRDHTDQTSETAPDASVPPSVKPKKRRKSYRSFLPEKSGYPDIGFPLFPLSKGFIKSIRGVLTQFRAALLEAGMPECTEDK
# Chain of UniProt Q9Y385 (whole entry, looked up): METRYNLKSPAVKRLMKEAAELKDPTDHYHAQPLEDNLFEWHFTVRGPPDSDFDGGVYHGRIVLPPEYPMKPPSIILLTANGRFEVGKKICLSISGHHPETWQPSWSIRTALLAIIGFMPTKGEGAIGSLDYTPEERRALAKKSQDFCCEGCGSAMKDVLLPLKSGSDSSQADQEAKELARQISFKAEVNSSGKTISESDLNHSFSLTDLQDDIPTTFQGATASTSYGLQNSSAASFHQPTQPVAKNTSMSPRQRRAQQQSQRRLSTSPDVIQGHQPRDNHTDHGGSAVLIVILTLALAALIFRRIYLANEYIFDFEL
# Chain of UniProt Q7Z7E8 (whole entry, looked up): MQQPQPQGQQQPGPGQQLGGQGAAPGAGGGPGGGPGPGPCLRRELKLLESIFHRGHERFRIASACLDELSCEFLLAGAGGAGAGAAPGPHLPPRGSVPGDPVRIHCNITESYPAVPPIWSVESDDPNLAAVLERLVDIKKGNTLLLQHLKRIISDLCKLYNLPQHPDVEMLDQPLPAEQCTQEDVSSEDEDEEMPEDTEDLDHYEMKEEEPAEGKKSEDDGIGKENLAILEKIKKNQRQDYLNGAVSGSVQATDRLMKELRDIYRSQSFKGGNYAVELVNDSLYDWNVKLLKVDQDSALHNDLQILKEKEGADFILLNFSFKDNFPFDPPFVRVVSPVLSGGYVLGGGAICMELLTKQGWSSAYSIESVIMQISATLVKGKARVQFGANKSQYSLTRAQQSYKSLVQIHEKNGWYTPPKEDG
# Chain of UniProt Q712K3 (whole entry, looked up): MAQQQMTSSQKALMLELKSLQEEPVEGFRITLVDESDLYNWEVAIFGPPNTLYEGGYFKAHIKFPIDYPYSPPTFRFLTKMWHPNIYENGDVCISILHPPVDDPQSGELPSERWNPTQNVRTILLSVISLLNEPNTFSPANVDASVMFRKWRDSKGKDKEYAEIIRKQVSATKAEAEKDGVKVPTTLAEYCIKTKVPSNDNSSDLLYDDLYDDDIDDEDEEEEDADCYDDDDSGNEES
# Chain of UniProt Q969T4 (whole entry, looked up): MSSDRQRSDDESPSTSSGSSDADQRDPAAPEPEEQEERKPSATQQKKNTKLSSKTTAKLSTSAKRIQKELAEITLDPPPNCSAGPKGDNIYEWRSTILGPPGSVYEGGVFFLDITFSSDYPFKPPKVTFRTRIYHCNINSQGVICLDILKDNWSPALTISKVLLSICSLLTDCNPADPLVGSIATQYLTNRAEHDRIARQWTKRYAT
# Chain of UniProt Q8N2K1 (whole entry, looked up): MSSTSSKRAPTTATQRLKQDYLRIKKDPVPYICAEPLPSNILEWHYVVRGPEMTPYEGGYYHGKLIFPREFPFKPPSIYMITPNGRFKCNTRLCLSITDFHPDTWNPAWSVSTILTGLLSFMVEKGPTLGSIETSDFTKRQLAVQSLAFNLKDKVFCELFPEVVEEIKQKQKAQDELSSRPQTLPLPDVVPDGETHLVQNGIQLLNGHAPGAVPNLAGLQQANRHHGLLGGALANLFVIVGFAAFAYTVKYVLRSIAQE
# Chain of UniProt Q9H832 (whole entry, looked up): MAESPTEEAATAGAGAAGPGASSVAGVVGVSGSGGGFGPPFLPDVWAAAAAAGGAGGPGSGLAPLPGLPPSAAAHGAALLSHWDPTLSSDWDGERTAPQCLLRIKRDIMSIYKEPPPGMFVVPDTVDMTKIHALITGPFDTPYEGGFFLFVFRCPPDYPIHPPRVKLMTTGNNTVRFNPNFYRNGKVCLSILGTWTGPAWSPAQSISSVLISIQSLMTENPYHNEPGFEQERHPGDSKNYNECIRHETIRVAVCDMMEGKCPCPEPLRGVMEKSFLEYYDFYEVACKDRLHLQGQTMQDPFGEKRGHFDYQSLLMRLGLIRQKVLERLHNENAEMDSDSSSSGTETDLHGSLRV
# Chain of UniProt P62253 (whole entry, looked up): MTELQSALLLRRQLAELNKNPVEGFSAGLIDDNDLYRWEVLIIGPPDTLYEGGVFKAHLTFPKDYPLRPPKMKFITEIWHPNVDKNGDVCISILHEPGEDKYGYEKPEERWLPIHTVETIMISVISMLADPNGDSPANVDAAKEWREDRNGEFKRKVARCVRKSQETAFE
# Chain of UniProt P51668 (whole entry, looked up): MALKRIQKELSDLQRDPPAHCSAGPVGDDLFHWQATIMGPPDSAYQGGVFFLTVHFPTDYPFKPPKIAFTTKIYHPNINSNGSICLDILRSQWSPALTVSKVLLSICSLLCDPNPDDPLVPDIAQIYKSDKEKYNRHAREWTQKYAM
# Chain of UniProt P63146 (whole entry, looked up): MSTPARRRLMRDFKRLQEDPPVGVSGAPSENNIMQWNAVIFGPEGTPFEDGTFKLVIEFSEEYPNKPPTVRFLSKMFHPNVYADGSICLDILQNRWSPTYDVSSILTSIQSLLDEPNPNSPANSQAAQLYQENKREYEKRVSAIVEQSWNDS
# Chain of UniProt Q16763 (whole entry, looked up): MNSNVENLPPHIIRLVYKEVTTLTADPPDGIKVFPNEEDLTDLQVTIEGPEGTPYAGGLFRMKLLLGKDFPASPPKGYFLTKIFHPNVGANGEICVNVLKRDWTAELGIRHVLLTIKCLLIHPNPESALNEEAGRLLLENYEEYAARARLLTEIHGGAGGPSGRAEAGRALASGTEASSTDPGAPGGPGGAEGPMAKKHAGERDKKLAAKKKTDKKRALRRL

# Study 1 — Molecule: RNF26 RING domain (UniProt Q9BY78); technique: yeast two-hybrid; sample: yeast; notes: mostly zero background; relative to: not given; reading: higher = stronger interaction
# Chain of UniProt Q9BY78 (whole entry, looked up): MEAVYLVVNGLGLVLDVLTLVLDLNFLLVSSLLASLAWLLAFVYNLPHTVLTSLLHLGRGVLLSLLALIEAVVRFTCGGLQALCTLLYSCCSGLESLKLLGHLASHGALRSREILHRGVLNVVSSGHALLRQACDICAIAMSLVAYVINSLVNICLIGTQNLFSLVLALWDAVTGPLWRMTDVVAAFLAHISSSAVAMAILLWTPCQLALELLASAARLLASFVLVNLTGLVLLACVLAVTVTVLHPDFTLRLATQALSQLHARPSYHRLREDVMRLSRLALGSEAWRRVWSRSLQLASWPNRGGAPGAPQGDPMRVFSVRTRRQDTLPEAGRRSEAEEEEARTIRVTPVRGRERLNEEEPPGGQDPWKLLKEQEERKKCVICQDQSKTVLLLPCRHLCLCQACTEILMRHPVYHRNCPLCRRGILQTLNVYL
target,lacZ reporter activity
BIRC6 UBC core domain (UniProt Q9NR09),0
UBE2J2 UBC core domain (UniProt Q8N2K1),0
UBE2R2 UBC core domain (UniProt Q712K3),0
UBE2D1 UBC core domain (UniProt P51668),0
UBE2E3 UBC core domain (UniProt Q969T4),0
UBE2T UBC core domain (UniProt Q9NPD8),0
UBE2S UBC core domain (UniProt Q16763),0
UBE2I UBC core domain (UniProt P63279),0
UBE2Q1 UBC core domain (UniProt Q7Z7E8),3110
UBE2B UBC core domain (UniProt P63146),0
UBE2M UBC core domain (UniProt P61081),0
UBE2L3 UBC core domain (UniProt P68036),0
UBE2J1 UBC core domain (UniProt Q9Y385),0
UBE2Z UBC core domain (UniProt Q9H832),2930
UBE2G1 UBC core domain (UniProt P62253),0
UBE2C UBC core domain (UniProt O00762),0
UBE2O UBC core domain (UniProt Q9C0C9),0

# Study 2 — technique: competition protein-binding microarray; molecule type: double-stranded DNA, one strand shown; sample: in vitro; tested at: 2 µM; with: Cbf1 competitor, 0.05 µM; reading: higher = stronger binding
# Target: Phosphate system positive regulatory protein PHO4, full length, GST-tagged (PHO4, Saccharomyces cerevisiae, UniProt P07270, residues 1-312)
# Notes: whole 60-bp probe, lowest competitor level
# Construct (chain): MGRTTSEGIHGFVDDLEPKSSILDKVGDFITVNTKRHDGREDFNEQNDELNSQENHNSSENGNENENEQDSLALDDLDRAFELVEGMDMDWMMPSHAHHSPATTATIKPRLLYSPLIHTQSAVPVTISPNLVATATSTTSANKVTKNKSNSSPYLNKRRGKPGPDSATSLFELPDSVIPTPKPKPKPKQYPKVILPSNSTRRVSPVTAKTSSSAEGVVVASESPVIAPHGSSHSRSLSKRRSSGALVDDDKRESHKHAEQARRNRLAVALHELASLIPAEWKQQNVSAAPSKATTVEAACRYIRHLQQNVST
Oligonucleotide,fluorescence intensity [a.u.]
ATTTTAACTTCATCTACCGTGATGGCTATTACCACCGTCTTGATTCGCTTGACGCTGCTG,4810
ATGCCCGACCGTACCGACGTGGCAATATTTTTGGGAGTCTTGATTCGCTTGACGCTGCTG,5430
TCGCCTACGCTATTTCACGTTTGTGCTGATAGAAACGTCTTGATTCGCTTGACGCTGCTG,6790
GTCTTGTCTCATTGTCACTGGACTTTCCCCACTTCAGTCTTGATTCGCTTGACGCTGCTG,4140
ATATATCTACTCCATCACGTTGCAAGACCCATCACAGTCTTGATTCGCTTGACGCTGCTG,11900
TTTCAAAGCTGCCTCCACGTGGAACTTTTATTTCATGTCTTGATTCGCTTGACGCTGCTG,17500
CCGCCCCCCACCTTGCATGCGGATTGGTTGTCCAAAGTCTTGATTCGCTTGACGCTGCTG,7310
CTAACGAAGGTTTGAGTAGTGGGTGACAAGCCAAGTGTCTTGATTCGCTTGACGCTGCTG,3800
ACCAAATGTGGAAATGGCATGACAACCCCCCAGACAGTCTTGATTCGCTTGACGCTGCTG,5610
AAAGCGGTAATTTGGGGCGTGGGTGCAGATATCTATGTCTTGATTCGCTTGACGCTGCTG,9320
GATTGACCAATTCGGCACGTGTATATTTCGTTGACCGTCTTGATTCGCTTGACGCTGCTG,14300
GGCAAATACTGCCGACACGTTGCCAAATCGCTGACCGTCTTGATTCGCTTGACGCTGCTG,12200
AAAGCGGTAATTTAGCACGTGTTTTCACATATCTATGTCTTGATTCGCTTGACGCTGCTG,19000
CTAACGAAGGTTTGGTCCGTGGGTGACAAGCCAAGTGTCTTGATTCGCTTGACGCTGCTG,6390
GTCTTGTCTCATTGTTAGGTGGGTGTCCCCACTTCAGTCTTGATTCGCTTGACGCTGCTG,4590
GTACTGGCTGAGCCGGTCGTGCCGAAAATGAAAATAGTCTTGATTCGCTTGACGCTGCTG,7540
AGAAAGCACATTTGTCACGTCTCAGGTATGTAGTTCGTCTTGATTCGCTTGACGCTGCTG,6630
AAAGCGGTAATTTGTCACCCAACTTCACATATCTATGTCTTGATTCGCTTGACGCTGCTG,3310
CAGCAAGTGTCCCAGCATGTGATGCTCACCAATCAGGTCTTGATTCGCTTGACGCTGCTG,8310
AAATTACTAAGTTGTCACGCGACTTACCCCGTATGAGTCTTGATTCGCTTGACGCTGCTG,7370
ATGTACAGTGGTACCCTCGTGTCCTCTGCAGCGAGAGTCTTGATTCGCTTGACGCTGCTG,11200
TGCGCAACAACTTGCCAAGTGGGTGTATGTCTAGAAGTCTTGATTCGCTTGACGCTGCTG,4980

# Study 3 — technique: protein-binding microarray; molecule type: double-stranded DNA, one strand shown; sample: in vitro; tested at: 2200 nM top; notes: 60-bp whole probe; with: salmon DNA 0.4 mg/ml; relative to: random background probes; reading: higher = stronger binding; all sequences stand within: GCCTAGCAC … GTCTTGATTCGCTTGACGCTGCTG
# Target: Interferon regulatory factor 7, full length, phosphomimetic (IRF7, Homo sapiens, UniProt Q92985, residues 1-503, S471D/S472D/S475D/S476D/S477D/S483D/S484D/S487D)
# Residues (chain): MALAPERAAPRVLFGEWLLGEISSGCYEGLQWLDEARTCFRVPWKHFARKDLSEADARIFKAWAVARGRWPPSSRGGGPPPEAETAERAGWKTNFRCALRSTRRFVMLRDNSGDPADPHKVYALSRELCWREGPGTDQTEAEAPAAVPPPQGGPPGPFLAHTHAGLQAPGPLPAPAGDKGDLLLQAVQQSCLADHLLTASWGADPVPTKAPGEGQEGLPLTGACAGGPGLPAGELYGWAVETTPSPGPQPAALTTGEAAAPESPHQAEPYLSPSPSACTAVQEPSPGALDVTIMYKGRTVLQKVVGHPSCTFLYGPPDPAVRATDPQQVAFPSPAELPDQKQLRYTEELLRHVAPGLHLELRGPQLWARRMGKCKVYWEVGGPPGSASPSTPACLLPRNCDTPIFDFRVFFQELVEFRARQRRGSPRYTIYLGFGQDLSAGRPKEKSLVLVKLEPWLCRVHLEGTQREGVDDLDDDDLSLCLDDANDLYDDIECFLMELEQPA
Oligonucleotide,fitted relative affinity
TTAGATTTCGCGACTGGATTAGTGCTA,0.395 z-score
TCATCTGTGCCTTTTTTACTGTGCTAG,1.33 z-score
TGAGGTTTCGACTTTCGGTTAGTGCTA,9.96 z-score
GACGGACTGCTCCTCCTGACGTGCTAG,0.353 z-score
TTAGATATCGACACTGGGTTAGTGCTA,-0.17 z-score
TCACTCATGGCTTTGTAACTGTGCTAG,0.883 z-score
CTTTCTTTATGCACTCTCTACGTGCTA,2.19 z-score
TTAGGTTCCCTTTTCGTTTAGTGCTAG,4.48 z-score
TTAGGTCTCGGTTTCGGGTAGTGCTAG,5.24 z-score
TTTCAGCTGTTTTTCTCACCGTGCTAG,2.63 z-score
TTAGGTTCCCTTTTTCTTTAGTGCTAG,1.94 z-score
TTAGATCTCAGTCTCGATTAGTGCTAG,0.442 z-score
TTAGGTTTCCTACTGCTTAAGTGCTAG,1.09 z-score
GACGGACTTCTTCTCCTGACGTGCTAG,0.541 z-score
CCGCTTTTTTTTTTTTTTTTGTGCTAG,2.05 z-score
AACGAACTGAGTCTCGAGACGTGCTAG,0.0695 z-score
CTTACTTTATGTAGGAAGTCGTGCTAG,0.458 z-score
TTAGAACTGAGTTTCGCTTAGTGCTAG,3.33 z-score
TTTTTTCTACTTCTCTTTTGGTGCTAG,4.97 z-score
ACCGTTGTAGTTTTCATTATGTGCTAG,2.07 z-score
GACGCTTTCGGGACTGGGGACGTGCTA,4.3 z-score
GACGGTATCCTACTGCTGGCGTGCTAG,0.488 z-score
TTAGGGCTCCTTATCCTTTAGTGCTAG,0.166 z-score
GACGATTTCGTGTATCGAGACGTGCTA,1.59 z-score
GACGAAGTGAGTATCGAGACGTGCTAG,-0.335 z-score

# Study 4 — technique: protein binding microarray; molecule type: double-stranded DNA, one strand shown; sample: in vitro; tested at: not given; relative to: not given; reading: higher = stronger binding
# Target: Histone acetyltransferase KAT6A, winged helix 2, GST fusion (KAT6A, Homo sapiens, UniProt Q92794, residues 85-181)
# Notes: 8-mer, flanks averaged, mean of 2 arrays, mostly near background
# Target sequence (chain): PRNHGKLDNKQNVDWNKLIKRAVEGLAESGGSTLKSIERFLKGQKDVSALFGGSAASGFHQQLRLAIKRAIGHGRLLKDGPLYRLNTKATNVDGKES
Oligonucleotide,E-score
CGGGGATA,-0.00318
ATACTAAA,0.0405
CTATGATC,0.0698
ATGAAGTC,-0.121
TCCGACGA,0.0723
AGGGACCC,0.0204
AGACTCCT,-0.147
GTATGCCA,-0.0685
ATTTTGTC,-0.0168
ATCGTGGG,0.0438
AGTTCATC,-0.137
GTGTGGCA,0.0223
ATAGGTTG,-0.15
AGGAGAAG,-0.102
AGCGTCGC,0.144
ACGTGTAA,-0.0658
CCCGGATA,-0.00885
CGGTATAG,-0.203
AACAGAAG,-0.0106
